Experimental data collected from several papers.
A part holds a random share of what one study measured. Substitutions count along the parent as printed.

Series 1
Target: Runt-related transcription factor 3, Runt domain (RUNX3, Homo sapiens, UniProt Q13761, residues 53-186)
UniProt Q13761, sequence (53-186, looked up): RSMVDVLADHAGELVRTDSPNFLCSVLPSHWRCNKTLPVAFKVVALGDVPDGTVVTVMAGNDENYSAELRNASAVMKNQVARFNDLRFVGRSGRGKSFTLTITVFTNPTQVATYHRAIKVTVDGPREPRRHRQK
Technique: protein-binding microarray
Form: hairpin DNA
Medium: in vitro
Tested at: not given
Setting: whole hairpin DNA, median over replicate spots
Baseline: not given
Direction: higher = stronger binding
Strand	median fluorescence
GAGGCCTGTTGCGGGTGGCCTCCTGGCCACCCGCAACAGGCCTCACACTC (5mC at 30)	5890 a.u.
GAGGCCCACGCGCAACAGCCTCCTGGCTGTTGCGCGTGGGCCTCACACTC (5mC at 9)	5340 a.u.
GAGGCCTGTTACGGTTGGCCTCCTGGCCAACCGTAACAGGCCTCACACTC	4360 a.u.
CTCAGTTCAGTGGGCTGGACTCCTGTCCAGCCCACTGAACTGAGACACTC	3920 a.u.
CTCAGTTTTGTGGGCTGGACTCCTGTCCAGCCCACAAAACTGAGACACTC	4080 a.u.
CTCAGTTCTGTGGGCGGGACTCCTGTCCCGCCCACAGAACTGAGACACTC	4340 a.u.
GAGGCCTGTTGTGGTCGGCCTCCTGGCCGACCACAACAGGCCTCACACTC (5mC at 16)	5360 a.u.
GAGGCCTGCGGTGGTTGGCCTCCTGGCCAACCACCGCAGGCCTCACACTC	5810 a.u.
CTCAGTTCGGTGGGCTGGACTCCTGTCCAGCCCACCGAACTGAGACACTC	4420 a.u.
GAGGCCTGTTGTGGGTGGCCTCCTGGCCACCCACAACAGGCCTCACACTC	4810 a.u.
GAGGCCTGTCGCGGGTGGCCTCCTGGCCACCCGCGACAGGCCTCACACTC	6050 a.u.
GAGGCCTGTCGCGGTTGGCCTCCTGGCCAACCGCGACAGGCCTCACACTC (5mC at 12 32)	5000 a.u.
GAGGCCTGTTGCTGTTGGCCTCCTGGCCAACAGCAACAGGCCTCACACTC	4860 a.u.
CTCAGTCCTGTGGGCTGGACTCCTGTCCAGCCCACAGGACTGAGACACTC	4380 a.u.
GAGGCCTCTTGTGGTTGGCCTCCTGGCCAACCACAAGAGGCCTCACACTC	5250 a.u.
GAGGCCTGTTGTGGTTGGCCTCCTGGCCAACCACAACAGGCCTCACACTC	5340 a.u.
GAGGCCTATCGCGGTTGGCCTCCTGGCCAACCGCGATAGGCCTCACACTC	5330 a.u.

Series 2
Target: RNA binding protein fox-1 homolog 2, RRM domain, GST-SBP tag (RBFOX2, Homo sapiens, UniProt O43251-10, residues 100-194)
Technique: RNA Bind-n-Seq
Form: RNA
Medium: in vitro
Tested at: 365 nM
Setting: natural RNA segment, single round, ends assumed
Baseline: no-protein control
Direction: higher = stronger binding
Shared flanks, not repeated: GGGAGUUCUACAGUCCGACGAUC … UGGAAUUCUCGGGUGCCAA
Residues (chain): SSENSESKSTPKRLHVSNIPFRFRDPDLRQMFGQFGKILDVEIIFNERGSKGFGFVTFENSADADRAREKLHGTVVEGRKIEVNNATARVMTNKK
Strand	RBNS enrichment (R)
UUUCCUGCAGAGUUCUUUGUAUCAACAGCCUAUGGUUGAGAUGUUUUCUCAUUUCCUGUAGAGAGAGAAUACCACUAACAAACAAACAAAAACUUUAGUGCCAAAAUAGU	0.504
ACCACUCUCUGCGUAUUGAUGGCAUGAUACGGUAUUGUCCUCGUAUAGAGUUAACAACUUACGAUAAAUUGCCCAAAGCUGGGCCUUGCUGUGUGUGCUCUGGACACUGU	0.396
CUCAUAGGGCUGAACCAGUGGGGCUGACGGGCCAGGUCAGCCUUGGACCCUUGAUCCUGGAGGACCCUGGAAGGGGUGGUUCCCUGUAAGCUCCCAAGAUCUAUGUUCCU	0.453
GCUUUGCUAACCAAAGAACAUAUAUUUUACUGUCCAUUUCCUCAGCUCCCCAGUCCGAGUAGCAUUUUCUCUGCCCUCCGACUUCUUUUGACCUCAUCUUCCUUCUGGGU	0.565
UGCCCCCACUCACCAAGGCCUCGCUCGUCCCUCUCGUCUGACAUGUCUGUGUGCACCCCCCUCCUCUCCACCCUACCUUCCAUCAACCAGGGCAGAUCCACCGUGCCCUG	1.34
CGGAUAGCUUACUAAUCUUGGACCUUCUGGCAGCCCAUCCACAGAACCAUCUCUCAUGGUUGUUAGCAAGAUGCCUAACACACUCAAGCAAACUAAGCACUGUCACUUUC	0.386
UGGGCCUGGCCUAGCUCCUCCGCCCUGGCCUAGCCCAGCAAACCCUGGGCGAGUCACAGAGUUUGCUCUUAAGUAGCAAGAGACCAAACUCACCUUGGGUGUAGGGGUCA	0.257
AGAAGCUGAAGUCUACGCUCCUCCCAAUCUUUGGUCCCAGUGCCGCUGUUCGCCUUCCUGCUGGUUGAUUGCAGAACCACCUCUGAGACCUCUGUACCUGCUCUUGGAAU	0.458

Series 3
Target: ABI1, truncated, D143A, DHFR fusion (Arabidopsis thaliana)
Technique: DHFR PCA, deep sequencing
Medium: yeast
Setting: methotrexate growth selection, single substitutions
Added: (+)-ABA 4.8 µM
Baseline: wild-type fitted maximum
Direction: higher = stronger binding
Starting sequence: PYL1, truncated, DHFR fusion (Arabidopsis thaliana); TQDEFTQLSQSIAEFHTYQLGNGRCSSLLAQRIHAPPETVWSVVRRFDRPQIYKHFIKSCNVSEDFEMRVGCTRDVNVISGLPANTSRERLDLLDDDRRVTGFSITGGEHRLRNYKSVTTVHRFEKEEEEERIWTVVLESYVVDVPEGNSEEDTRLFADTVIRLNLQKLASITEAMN; partner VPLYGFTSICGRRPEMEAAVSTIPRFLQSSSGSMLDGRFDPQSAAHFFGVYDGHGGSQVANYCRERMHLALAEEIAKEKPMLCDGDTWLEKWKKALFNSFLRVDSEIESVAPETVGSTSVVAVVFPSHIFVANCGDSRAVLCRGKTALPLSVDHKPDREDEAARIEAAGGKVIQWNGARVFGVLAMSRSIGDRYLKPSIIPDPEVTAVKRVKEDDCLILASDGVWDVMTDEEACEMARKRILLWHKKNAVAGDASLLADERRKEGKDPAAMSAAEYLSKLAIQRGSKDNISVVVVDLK
Change	relative binding score [%]
I33Y	0.311
Y115H	11.2
I133M	79.6
Q19S	74.2
R155F	-14.2
E64Q	75.6
Q167K	90.8
S63L	47.1
S140N	-10.2
R74Q	-14.1
I172V	91.6
V100H	5.27
L8W	59.5
M176P	63.1
E127L	71.4
L138S	8.35
N77T	87.3
D95L	14.9
K54N	-2.81
I105C	19.5
E152Q	69
V118T	77
K58F	10
K54H	-1.03
D92R	3.45

Series 4
Target: CCNB1, cyclin fold, Cln2 fusion (human)
Technique: yeast growth competition, sequencing
Medium: yeast
Setting: strong parent motif
Baseline: not given
Direction: higher = stronger binding
Starting sequence: MASTL docking peptide (human); PMIAKNLMCELDE
Change	normalised enrichment score
C9L	2.09
I3Y	0.501
I3K	0.18
A4N	1.65
N6P	0.0157
A4M	1.3
A4R	2.67
D12Y	0.355
A4C	2.79
E10S	0.414
A4T	1.06
E10K	0.392
D12E	1.93
C9F	2.82
N6T	0.413
C9Q	2.33
M2R	2.67
K5N	0.533
L11H	0.329
K5P	-0.214
K5F	0.295
N6E	-0.0342
C9A	2.98
N6V	0.364
C9M	2.11

A few entries again (series 1):
Strand	median fluorescence
GAGGCCTGCGGTGGTTGGCCTCCTGGCCAACCACCGCAGGCCTCACACTC	5810 a.u.
CTCAGTTCGGTGGGCTGGACTCCTGTCCAGCCCACCGAACTGAGACACTC	4420 a.u.
GAGGCCTGTTGTGGGTGGCCTCCTGGCCACCCACAACAGGCCTCACACTC	4810 a.u.
GAGGCCTGTCGCGGGTGGCCTCCTGGCCACCCGCGACAGGCCTCACACTC	6050 a.u.
GAGGCCTGTCGCGGTTGGCCTCCTGGCCAACCGCGACAGGCCTCACACTC (5mC at 12 32)	5000 a.u.
GAGGCCTGTTGCTGTTGGCCTCCTGGCCAACAGCAACAGGCCTCACACTC	4860 a.u.
CTCAGTCCTGTGGGCTGGACTCCTGTCCAGCCCACAGGACTGAGACACTC	4380 a.u.
GAGGCCTCTTGTGGTTGGCCTCCTGGCCAACCACAAGAGGCCTCACACTC	5250 a.u.
GAGGCCTGTTGTGGTTGGCCTCCTGGCCAACCACAACAGGCCTCACACTC	5340 a.u.
GAGGCCTATCGCGGTTGGCCTCCTGGCCAACCGCGATAGGCCTCACACTC	5330 a.u.
